Published values gathered from unrelated publications.
Each numbered part is a random draw from the data of one study; scales do not carry over between parts. Positions count from the first letter of the parent shown.

Series 1
Target: RING finger protein unkempt homolog, zinc fingers 1-6, GST-SBP tag (UNK, Homo sapiens, UniProt Q9C0B0, residues 30-357)
UniProt Q9C0B0, sequence (30-357, looked up): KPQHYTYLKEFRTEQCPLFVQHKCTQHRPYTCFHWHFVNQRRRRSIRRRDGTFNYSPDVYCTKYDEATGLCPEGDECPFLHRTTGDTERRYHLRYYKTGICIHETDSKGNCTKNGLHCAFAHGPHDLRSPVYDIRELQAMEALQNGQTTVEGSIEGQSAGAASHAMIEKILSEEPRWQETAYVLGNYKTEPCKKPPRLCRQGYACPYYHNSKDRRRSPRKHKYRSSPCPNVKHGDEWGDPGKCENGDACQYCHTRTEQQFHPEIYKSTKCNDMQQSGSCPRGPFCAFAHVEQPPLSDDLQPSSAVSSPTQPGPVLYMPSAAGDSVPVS
Method: RNA Bind-n-Seq
Molecule type: RNA
Sample: in vitro
Concentration: not given
Setting: RNA with constant flanks, human and mouse sites, ends assumed
Reference: input RNA pool
Direction: higher = stronger binding
Oligonucleotide	bound/input enrichment [ratio]
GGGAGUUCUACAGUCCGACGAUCGCAAAGAUGGUAUGUUCAGAUUCCCCAUUUGCCGGGGCACUUAGAAAACGACUGCUUGUACUCCAGCGUGUCUUUUAUGCACUUUCUAAUAAAUACCAUGACAAAGGCAAGGUGAAGCAGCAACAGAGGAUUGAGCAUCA	0.271
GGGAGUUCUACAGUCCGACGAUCAGCUCCAGUUUGGCAGUUGUGGAUUUAAUUGAUGCCAUCCAGCCAGGCUGUAUAAACUAUGACCUUGUGAAGAGUGGCAAUCUAACAGAAGAUGACAAGCACAAUAAUGCCAAGUAUGCACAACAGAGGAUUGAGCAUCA	0.165
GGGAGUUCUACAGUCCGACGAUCCUCAUCUUUGACCUGGGAGGUGGCACUUUUGAUGUGUCAAUCCUCACUAUUGAGGAUGGAAUCUUUGAGGUCAAGUCUACAGCUGGAGACACCCACUUGGGUGGAGAAGAUUUUGACAACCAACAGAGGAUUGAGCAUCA	0.188
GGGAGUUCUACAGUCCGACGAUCUUCACCGAAGUUGCAAUUGGCCCAUCCGUGCUCAAUGCUGCCAGAGAUGAUAUUAGCAAGCUUAGGAAUACACUUCGCUUUCUUUUGGGAAAUGUGGCUGAUUUCAACCCAGAAACAGAUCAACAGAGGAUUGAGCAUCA	0.319
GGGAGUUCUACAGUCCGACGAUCCCCACGGCCGUUGGUCCGGGCGGGUGAGGGAGAAAGUGAGACUUGGUGUCAUCACCAUCCAUUGUCAGAAGGGGAGGAAAUUGGAAUCCAGCAGCGGCGAGCAGCAGCUGGGCGGUCACACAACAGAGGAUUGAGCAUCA	0.236
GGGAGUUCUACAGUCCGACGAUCCACACUGCUGCUAUGGAUAUGCUGGGAGGAUCUGGUGUUGAAAACCAAUGUAGAAAAGUUGACAUCAUUGCGGACGCUGCAUAUUCCAUUUUCAAAAGGCCAAAAAGUUUUACUGGCAACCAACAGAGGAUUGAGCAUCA	0.186
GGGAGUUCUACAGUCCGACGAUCAGAAGCUUCCUAAGGAACAAGCAAGUUGAAUAGAGAAAAUAGUGAUCAAUAAUAGGCAUUUUAGUGGUCUUUUUAAUGUUUUCUGCUGCGGAACAUUUCAAGAUUUAUUGAUUUCCUCCUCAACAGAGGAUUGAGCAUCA	7.42
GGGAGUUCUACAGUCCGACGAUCUGGACUCAUGUUGGGCCUACUCCUGCAAUAACAAUUAAGGAAUCAGUUGCCAACCAUUUGUAGUUCACAAAUUAAAACUGGGUUUCCAGGCCUGGUGUGGUGGCUCACGCCUGUAGCCCCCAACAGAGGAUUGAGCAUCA	1.79

Series 2
Target: CCNE2, cyclin fold, Cln2 fusion (human)
Method: yeast growth competition, sequencing
Sample: yeast
Setting: weak parent motif
Reference: not given
Direction: higher = stronger binding
Starting sequence: CDC6 docking peptide (human); TLKGRRLVFDNQL; partner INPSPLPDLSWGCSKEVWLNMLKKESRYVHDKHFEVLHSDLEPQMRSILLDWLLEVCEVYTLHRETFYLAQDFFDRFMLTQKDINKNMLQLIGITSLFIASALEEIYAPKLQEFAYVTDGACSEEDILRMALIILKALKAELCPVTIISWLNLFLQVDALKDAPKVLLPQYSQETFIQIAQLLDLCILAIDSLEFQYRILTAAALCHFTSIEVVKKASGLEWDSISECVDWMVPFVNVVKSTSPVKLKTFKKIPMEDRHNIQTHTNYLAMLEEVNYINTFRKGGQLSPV
Change	normalised enrichment score
N11F	1.35
L7N	-0.0915
F9H	0.148
R6N	0.228
V8A	-0.238
F9R	0.413

Series 3
Target: POU domain, class 5, transcription factor 1, POU domain (Pou5f1, Mus musculus, UniProt P20263, residues 131-289)
UniProt P20263, sequence (131-289, looked up): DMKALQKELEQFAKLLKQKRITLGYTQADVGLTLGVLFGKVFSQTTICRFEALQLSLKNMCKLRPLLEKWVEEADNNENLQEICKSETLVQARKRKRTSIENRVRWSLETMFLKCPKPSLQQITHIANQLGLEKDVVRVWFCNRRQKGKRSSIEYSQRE
Method: Spec-seq
Molecule type: double-stranded DNA, one strand shown
Sample: in vitro
Concentration: not given
Setting: whole probe, mean of replicates
Reference: not given
Direction: lower = stronger binding
All sequences stand within: GAGTCGTCTCGTCAGCAC … CCGTAGAGCACTCAGGTC
Oligonucleotide	relative binding energy [ln ratio]
ATGCATAT	-2.05
ATCGGAAT	0.175
ATGCCAAC	0.445
CCTCTAAT	0.945
ATCGGGAT	0.634
ATGCCTCC	0.725

Further values, each from its own experiment
Substance	target	test	system	setting	how to read	quantity	result
PhoQ, residues 284 288 289 292 302 303 SSTMSV	PhoP, residues 12 14 15 18 19 LHTVM (Escherichia coli, UniProt P23836)	Sort-seq, refers to: YFP reporter	E. coli	PhoQ-PhoP variant library, with: 10 µM Mg2+	reference: high Mg2+ state, higher = stronger signaling	fold induction	9.47

Some of these lines once more (series 1):
Oligonucleotide	bound/input enrichment [ratio]
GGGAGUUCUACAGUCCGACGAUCCUCAUCUUUGACCUGGGAGGUGGCACUUUUGAUGUGUCAAUCCUCACUAUUGAGGAUGGAAUCUUUGAGGUCAAGUCUACAGCUGGAGACACCCACUUGGGUGGAGAAGAUUUUGACAACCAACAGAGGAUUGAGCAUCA	0.188
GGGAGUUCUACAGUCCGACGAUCUUCACCGAAGUUGCAAUUGGCCCAUCCGUGCUCAAUGCUGCCAGAGAUGAUAUUAGCAAGCUUAGGAAUACACUUCGCUUUCUUUUGGGAAAUGUGGCUGAUUUCAACCCAGAAACAGAUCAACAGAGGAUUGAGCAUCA	0.319
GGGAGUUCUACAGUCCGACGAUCGCAAAGAUGGUAUGUUCAGAUUCCCCAUUUGCCGGGGCACUUAGAAAACGACUGCUUGUACUCCAGCGUGUCUUUUAUGCACUUUCUAAUAAAUACCAUGACAAAGGCAAGGUGAAGCAGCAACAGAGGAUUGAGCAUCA	0.271
